Measurements gathered from unrelated publications.
Compare with care: the assays were run in different laboratories. Several values in a cell are separate wells, animals, samples, runs or records. Numbers after ± are the reported error.

CC/C=C\C/C=C\C/C=C\C/C=C\C/C=C\C/C=C\CCC(=O)Nc1ccn(C2OC(CO)C(O)C2(F)F)c(=O)n1 (stereo not drawn)  CC50 (HOP-62; NCI60 screen): 35.2 µM
CC(=O)Oc1ccc(/C=C/C(=O)Nc2nc(=O)n([C@@H]3O[C@H](C)[C@@H](OC(C)=O)[C@H]3OC(C)=O)cc2F)c(OC(C)=O)c1  selectivity index (ASPC1; cell viability, MTT; baseline: NHDF fibroblasts over ASPC1): 1.43
CC[C@H]1OC(=O)[C@H](C(C)C)NC(=O)[C@H](C)OC(=O)[C@@H](C(C)C)NC(=O)[C@@H](C(C)C)OC(=O)[C@H](C(C)C)NC(=O)[C@H](C)OC(=O)[C@@H](C(C)C)NC(=O)[C@@H](C(C)C)OC(=O)[C@H](C(C)C)NC(=O)[C@H](C)OC(=O)[C@@H](C(C)C)NC1=O  G0/G1 phase cells (U-251; PI staining flow cytometry; 0.8 µM, 12 h): 62.4%
CC[C@@]1(OC(=O)CCC(=O)NCCCC[C@H](NC(=O)[C@H](Cc2ccccc2)NC(=O)[C@H](Cc2ccccc2)NC(=O)CCSC2=C(/C=C/C3=[N+](C)c4ccccc4C3(C)C)CCC/C2=C\C=C2\N(C)c3ccccc3C2(C)C)C(=O)N[C@@H](CCCCNC(=O)CCCC[C@@H]2SC[C@@H]3NC(=O)N[C@@H]32)C(=O)O)C(=O)OCc2c1cc1n(c2=O)Cc2cc3ccccc3nc2-1  viability (4T1; CCK-8; 20 µM, 4 h then 24 h, added: 808 nm laser 1 W/cm2 5 min; baseline: untreated): 1.3%
CC(=O)NC1C(OC2OC(CC(O)C3OC(n4ccc(=O)[nH]c4=O)C(O)C3O)C(O)C(O)C2NC(=O)COCc2ccc(N3CCC(Oc4ccc(OC(F)(F)F)cc4)CC3)cc2)OC(CO)C(O)C1O (stereo not drawn)  cytostatic concentration (MCF7, SK-BR-3, MDA-MB-231; cell growth): 1.25 to 4.5 µM
CC(C)c1cnn2c(NCc3ccccc3)cc(N[C@@H](CO)[C@H](O)CO)nc12  GI50 ratio (MCF7 resistant to compound; sulforhodamine B; baseline: resistant over parental MCF7): 2.5 fold
O=C1/C(=C/c2ccc3c(c2)OCCO3)SC(=S)N1[C@@H]1O[C@H](CO)[C@@H](O)[C@H](O)[C@H]1O  mRNA fold change (HepG2; measured: Bcl-2; IC50, 48 h; baseline: untreated): 0.13 fold
CC[C@H](C)[C@H](NC(=O)[C@@H](NC(=O)C(C)(C)N)C(C)C)C(=O)N[C@@H](C)C(N)=O  viability (PC-12; Aβ42-induced neurotoxicity, inhibitor, MTT; concentration not given, 6 h, 37 °C, peptide to Aβ42 1:2, added: Aβ42 2 µM; baseline: untreated cells): 95.1%
CC[C@H](C)[C@H](NC(=O)[C@H](Cc1ccccc1)NC(=O)[C@H](CC(=O)O)NC(=O)[C@H](CCCCN)NC(=O)[C@H](C)NC(=O)[C@H](CCCCN)NC(=O)[C@H](CC(N)=O)NC(=O)[C@H](CC(C)C)NC(=O)[C@H](Cc1c[nH]c2ccccc12)NC(=O)[C@H](CCC(=O)O)NC(=O)[C@H](CCCCN)NC(=O)[C@@H](NC(=O)CNC(=O)[C@H](C)N)[C@@H](C)O)C(=O)N[C@@H](CCCCN)C(=O)N[C@@H](CCC(=O)O)C(=O)N[C@@H](CCCCN)C(=O)NCC(=O)N[C@@H](CC(C)C)C(=O)N[C@@H](CCC(=O)O)C(=O)N[C@@H](CCSC)C(=O)N[C@@H](CC(C)C)C(=O)N[C@@H](CO)C(=O)N[C@@H](C)C(=O)N[C@@H](C)C(=O)N[C@@H](C)C(=O)N[C@@H](CC(N)=O)C(=O)N[C@@H](C)C(=O)N[C@@H](C)C(=O)N[C@@H](CC(C)C)C(=O)N[C@@H](CC(N)=O)C(=O)O  intracellular calcium increase (mouse DRG neurons; 10 µM, 90 s): inactive
CC(C)CC(O)(CC(C)C)c1cn(C(=O)N2CCCC2)nn1  SILAC ratio (mouse T-cells; N-terminal labeled proteins, N-terminal enrichment proteomics, measured: PAIP2; 1 nM, 6 h; baseline: DMSO): 2.57 ± 0.29
CCCCCCCCCCCCCCCC[P+](c1ccccc1)(c1ccccc1)c1ccccc1  GI50 (HCT-116; cell growth or viability; 72 h): 3.11 µM
COc1ccccc1/C=C/[N+](=O)[O-]  CC50 (MOLM-13; cell growth or viability; 72 h): 0.56 µM
COC(=O)[C@H](CC(C)C)NC(=O)[C@@H]1CCCN1C(=O)[C@@H](NC(=O)[C@H](CCC(=O)C=[N+]=[N-])NC(=O)OCc1ccccc1)C(C)C  citrate synthase activity increase (Q7 striatal cells; 50 µM, 24 h): ~50%
CC(C)[C@H](NC(=O)c1ccc(CCc2nc3c(c(=O)[nH]2)CCC3)cc1)C(=O)NC1CNC1  osteoclast differentiation (mouse osteoclast precursors; 10 µM, 5 to 7 d, added: M-CSF and RANKL; baseline: control): 79%
CCOP(=O)(OCC)OCCCCOC(=O)CC1=C(C)C(=Cc2ccc([S+](C)[O-])cc2)c2ccc(F)cc21 (stereo not drawn)  inhibition (H23; cell proliferation, BrdU incorporation; IC50, 24 h): 49%
O=C(O)CCC(NP(=O)(O)OCCC[C@@H](NC(=O)CCC(NC(=O)CCCCCNC(=O)c1ccc([18F])cc1)C(=O)O)C(=O)O)C(=O)O (stereo partly drawn)  surface-bound fraction (CWR22Rv1; 1 h): 18.6 ± 2.7%
CC[C@@]1(O)C(=O)OCc2c1cc1n(c2=O)Cc2cc3cc(OC(=O)CCCC(=O)NCC(=O)N[C@@H](Cc4ccccc4)C(=O)N[C@@H](Cc4ccccc4)C(=O)N[C@@H](Cc4ccc(OP(=O)(O)O)cc4)C(=O)NCCSSCCNC(=O)CCC(=O)N[C@@H](CCC(=O)O)C(=O)N[C@@H](CCCNC(=N)N)C(=O)NCC(=O)N[C@@H](CC(=O)O)C(=O)O)ccc3nc2-1  IC50 ratio (HepG2; cell growth, MTT; 48 h; baseline: free hydroxycamptothecin over compound): 10 fold and > 10 fold
C[C@H]1C(OCCCCCCCC[P+](c2ccccc2)(c2ccccc2)c2ccccc2)O[C@@H]2O[C@@]3(C)CCC4[C@H](C)CCC1[C@]42OO3 (stereo partly drawn)  protein level (J82 and T24; western blot, measured: cyclin D1; concentration not given, 48 h): decreased
COC1CC(=O)N(C)C=CCCCC(=O)N(C)C(C(C)C)C(=O)N(C)C(CC(C)C)C(=O)OC(C(C)C)CC(C)C1 (stereo not drawn)  pathway activation z-score (HCT-116; RNA sequencing, measured: idiopathic pulmonary fibrosis signalling; 20 µM, 12 h; direction not given): 3
CC12OOC(C)(OO1)C2CCC(=O)NCCNc1ccnc2cc(Cl)ccc12 (stereo not drawn)  inhibition (HL-60; cell growth or viability, resazurin; 10 µM, 48 h): 74%
C[C@H]1C(OCCCCCCCCCCC[P+](c2ccccc2)(c2ccccc2)c2ccccc2)O[C@@H]2O[C@@]3(C)CCC4[C@H](C)CCC1[C@]42OO3 (stereo partly drawn)  selectivity index (T24; MTT; 72 h; baseline: HUVEC IC50 over T24 IC50): 0.97

Excerpt of the above:
CC(C)[C@H](NC(=O)c1ccc(CCc2nc3c(c(=O)[nH]2)CCC3)cc1)C(=O)NC1CNC1  osteoclast differentiation (mouse osteoclast precursors; 10 µM, 5 to 7 d, added: M-CSF and RANKL; baseline: control): 79%
CCOP(=O)(OCC)OCCCCOC(=O)CC1=C(C)C(=Cc2ccc([S+](C)[O-])cc2)c2ccc(F)cc21 (stereo not drawn)  inhibition (H23; cell proliferation, BrdU incorporation; IC50, 24 h): 49%
O=C(O)CCC(NP(=O)(O)OCCC[C@@H](NC(=O)CCC(NC(=O)CCCCCNC(=O)c1ccc([18F])cc1)C(=O)O)C(=O)O)C(=O)O (stereo partly drawn)  surface-bound fraction (CWR22Rv1; 1 h): 18.6 ± 2.7%
